Measurements of several laboratories.
Each numbered part is a random draw from the data of one study; scales do not carry over between parts.
Chain of UniProt Q8IVW4 (whole entry, looked up): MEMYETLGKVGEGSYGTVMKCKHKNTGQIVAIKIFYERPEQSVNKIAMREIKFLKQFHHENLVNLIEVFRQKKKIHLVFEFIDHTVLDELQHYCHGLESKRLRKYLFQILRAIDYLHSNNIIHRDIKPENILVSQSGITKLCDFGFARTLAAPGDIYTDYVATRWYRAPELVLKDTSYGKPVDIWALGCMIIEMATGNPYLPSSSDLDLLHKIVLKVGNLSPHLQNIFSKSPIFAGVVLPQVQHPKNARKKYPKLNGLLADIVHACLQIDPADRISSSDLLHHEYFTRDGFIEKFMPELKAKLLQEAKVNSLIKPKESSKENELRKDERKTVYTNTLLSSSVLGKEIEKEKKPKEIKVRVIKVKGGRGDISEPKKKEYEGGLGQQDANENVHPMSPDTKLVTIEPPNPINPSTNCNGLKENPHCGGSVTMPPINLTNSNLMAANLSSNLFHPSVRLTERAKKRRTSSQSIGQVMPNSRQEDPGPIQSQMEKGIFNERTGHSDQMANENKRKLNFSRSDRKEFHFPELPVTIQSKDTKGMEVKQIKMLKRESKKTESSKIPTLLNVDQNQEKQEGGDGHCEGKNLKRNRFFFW
Chain of UniProt Q8IYT8 (whole entry, looked up): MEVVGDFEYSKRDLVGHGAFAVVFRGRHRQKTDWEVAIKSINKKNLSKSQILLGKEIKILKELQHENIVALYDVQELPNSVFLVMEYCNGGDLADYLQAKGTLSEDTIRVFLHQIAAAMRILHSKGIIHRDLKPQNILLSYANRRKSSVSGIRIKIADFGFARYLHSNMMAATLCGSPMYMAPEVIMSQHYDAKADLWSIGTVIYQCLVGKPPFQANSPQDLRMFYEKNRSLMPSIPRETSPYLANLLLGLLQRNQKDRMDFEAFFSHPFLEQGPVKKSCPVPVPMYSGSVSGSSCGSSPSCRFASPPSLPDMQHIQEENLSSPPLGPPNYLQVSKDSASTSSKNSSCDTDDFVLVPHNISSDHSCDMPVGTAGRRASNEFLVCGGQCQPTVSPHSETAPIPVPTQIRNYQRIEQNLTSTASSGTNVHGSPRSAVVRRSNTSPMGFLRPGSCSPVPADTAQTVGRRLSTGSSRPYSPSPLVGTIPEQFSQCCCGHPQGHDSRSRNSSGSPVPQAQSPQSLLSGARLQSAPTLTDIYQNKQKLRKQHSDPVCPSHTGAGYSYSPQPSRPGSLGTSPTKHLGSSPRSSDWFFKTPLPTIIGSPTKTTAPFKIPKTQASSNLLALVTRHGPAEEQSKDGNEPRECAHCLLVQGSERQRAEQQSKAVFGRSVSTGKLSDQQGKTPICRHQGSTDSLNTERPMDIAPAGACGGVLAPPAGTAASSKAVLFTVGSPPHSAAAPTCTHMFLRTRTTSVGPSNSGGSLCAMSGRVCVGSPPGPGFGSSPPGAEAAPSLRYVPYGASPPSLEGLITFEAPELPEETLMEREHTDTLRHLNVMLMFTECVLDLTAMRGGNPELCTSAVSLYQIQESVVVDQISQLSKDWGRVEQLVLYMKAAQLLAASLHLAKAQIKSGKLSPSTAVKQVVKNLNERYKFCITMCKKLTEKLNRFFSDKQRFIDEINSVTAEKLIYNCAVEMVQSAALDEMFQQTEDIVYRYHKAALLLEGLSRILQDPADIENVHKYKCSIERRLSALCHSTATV
Chain of UniProt Q12851 (whole entry, looked up): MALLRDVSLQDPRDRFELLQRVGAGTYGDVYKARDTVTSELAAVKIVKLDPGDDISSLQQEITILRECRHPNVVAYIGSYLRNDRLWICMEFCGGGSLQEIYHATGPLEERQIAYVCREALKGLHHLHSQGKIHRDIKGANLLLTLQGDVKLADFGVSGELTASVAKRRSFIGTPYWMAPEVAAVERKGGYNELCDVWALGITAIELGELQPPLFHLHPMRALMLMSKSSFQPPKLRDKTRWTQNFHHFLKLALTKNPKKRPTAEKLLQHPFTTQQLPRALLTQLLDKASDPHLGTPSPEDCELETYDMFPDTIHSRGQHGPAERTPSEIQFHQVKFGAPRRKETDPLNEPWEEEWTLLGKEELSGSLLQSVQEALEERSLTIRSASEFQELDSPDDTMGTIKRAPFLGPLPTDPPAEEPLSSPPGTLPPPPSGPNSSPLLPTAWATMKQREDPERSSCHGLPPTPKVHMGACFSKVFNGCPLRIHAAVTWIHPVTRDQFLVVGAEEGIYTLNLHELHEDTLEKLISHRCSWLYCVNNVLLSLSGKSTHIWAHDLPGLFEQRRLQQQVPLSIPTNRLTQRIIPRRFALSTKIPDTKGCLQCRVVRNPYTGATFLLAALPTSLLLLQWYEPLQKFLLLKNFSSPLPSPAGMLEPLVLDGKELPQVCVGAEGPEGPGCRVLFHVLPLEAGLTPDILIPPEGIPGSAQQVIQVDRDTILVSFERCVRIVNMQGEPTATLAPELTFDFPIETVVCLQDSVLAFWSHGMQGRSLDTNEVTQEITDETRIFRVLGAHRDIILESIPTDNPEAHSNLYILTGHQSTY
Chain of UniProt O15264 (whole entry, looked up): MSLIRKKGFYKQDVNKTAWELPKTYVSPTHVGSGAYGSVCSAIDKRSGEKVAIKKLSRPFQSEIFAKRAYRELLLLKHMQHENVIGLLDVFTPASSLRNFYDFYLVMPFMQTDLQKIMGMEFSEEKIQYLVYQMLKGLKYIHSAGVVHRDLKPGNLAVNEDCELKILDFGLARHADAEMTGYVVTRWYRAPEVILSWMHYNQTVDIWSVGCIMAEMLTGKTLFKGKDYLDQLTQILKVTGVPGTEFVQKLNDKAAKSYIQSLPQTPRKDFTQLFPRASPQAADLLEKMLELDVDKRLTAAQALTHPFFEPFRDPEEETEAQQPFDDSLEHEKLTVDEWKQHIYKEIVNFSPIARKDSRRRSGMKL
Chain of UniProt P42336 (whole entry, unmodified, looked up): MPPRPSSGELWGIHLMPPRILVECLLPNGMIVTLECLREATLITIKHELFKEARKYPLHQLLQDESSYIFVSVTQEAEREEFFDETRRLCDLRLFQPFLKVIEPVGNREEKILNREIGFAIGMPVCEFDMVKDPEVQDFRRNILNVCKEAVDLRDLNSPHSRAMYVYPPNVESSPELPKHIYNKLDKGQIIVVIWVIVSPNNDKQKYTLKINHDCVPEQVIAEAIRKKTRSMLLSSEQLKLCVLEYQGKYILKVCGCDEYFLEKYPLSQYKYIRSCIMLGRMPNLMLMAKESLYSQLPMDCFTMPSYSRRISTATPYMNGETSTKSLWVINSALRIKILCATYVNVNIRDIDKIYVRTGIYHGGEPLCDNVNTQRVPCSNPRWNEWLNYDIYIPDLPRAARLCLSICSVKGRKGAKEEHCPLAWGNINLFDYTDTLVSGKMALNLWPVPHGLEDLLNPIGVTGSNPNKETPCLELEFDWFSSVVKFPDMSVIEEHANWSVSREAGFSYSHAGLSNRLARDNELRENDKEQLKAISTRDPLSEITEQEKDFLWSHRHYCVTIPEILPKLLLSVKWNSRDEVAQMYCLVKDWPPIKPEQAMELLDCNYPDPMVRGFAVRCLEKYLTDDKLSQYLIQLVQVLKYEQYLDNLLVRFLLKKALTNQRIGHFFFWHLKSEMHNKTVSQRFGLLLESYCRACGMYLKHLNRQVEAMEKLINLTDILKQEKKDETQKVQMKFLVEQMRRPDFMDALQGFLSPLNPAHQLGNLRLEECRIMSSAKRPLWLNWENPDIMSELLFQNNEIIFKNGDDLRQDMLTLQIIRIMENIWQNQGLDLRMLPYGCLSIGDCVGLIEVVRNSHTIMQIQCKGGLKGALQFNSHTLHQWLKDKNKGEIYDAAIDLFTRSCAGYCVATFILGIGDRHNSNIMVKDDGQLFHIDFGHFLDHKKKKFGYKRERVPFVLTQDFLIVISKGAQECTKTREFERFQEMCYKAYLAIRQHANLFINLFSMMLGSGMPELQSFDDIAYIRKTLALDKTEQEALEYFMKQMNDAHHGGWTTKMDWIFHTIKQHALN
Chain of UniProt P22607 (whole entry, looked up): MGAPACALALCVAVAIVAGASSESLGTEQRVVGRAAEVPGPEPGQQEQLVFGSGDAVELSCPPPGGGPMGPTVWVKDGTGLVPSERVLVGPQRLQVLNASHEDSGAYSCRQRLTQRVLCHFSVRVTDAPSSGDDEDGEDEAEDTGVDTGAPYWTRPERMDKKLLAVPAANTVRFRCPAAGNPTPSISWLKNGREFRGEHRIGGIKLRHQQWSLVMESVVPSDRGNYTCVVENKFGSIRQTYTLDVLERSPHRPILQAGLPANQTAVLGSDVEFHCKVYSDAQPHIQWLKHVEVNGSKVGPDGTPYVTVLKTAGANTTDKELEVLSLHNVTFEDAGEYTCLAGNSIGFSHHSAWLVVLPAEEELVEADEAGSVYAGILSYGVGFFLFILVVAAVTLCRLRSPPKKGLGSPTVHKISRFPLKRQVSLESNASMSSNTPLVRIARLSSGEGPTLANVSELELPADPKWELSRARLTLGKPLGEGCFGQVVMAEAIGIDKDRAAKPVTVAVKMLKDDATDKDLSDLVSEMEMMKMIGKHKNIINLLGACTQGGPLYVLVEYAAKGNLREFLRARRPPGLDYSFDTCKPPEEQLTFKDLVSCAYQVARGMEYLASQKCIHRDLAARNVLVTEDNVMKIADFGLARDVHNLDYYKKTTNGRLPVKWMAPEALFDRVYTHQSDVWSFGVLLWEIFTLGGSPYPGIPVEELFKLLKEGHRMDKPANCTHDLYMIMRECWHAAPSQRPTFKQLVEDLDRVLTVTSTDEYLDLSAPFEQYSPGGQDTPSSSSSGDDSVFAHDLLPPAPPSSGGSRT
Chain of UniProt P52564 (whole entry, looked up): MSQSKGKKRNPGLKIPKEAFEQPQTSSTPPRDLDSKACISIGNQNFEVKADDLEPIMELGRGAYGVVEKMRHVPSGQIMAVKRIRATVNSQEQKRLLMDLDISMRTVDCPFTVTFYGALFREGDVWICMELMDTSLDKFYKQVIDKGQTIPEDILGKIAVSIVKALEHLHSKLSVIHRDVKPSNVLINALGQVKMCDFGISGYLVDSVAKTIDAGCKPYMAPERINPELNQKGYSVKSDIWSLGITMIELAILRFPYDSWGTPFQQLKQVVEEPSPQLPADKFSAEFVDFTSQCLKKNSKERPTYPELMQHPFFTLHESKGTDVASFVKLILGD

Study 1
Structure (SMILES): O=C1NC(=O)/C(=C/c2ccc3nccnc3c2)S1
Read-out: enzyme activity
Mode: inhibitor
Concentration: 0.5 µM
Relative to: control
Quantity: remaining activity
MKNK2 (Homo sapiens, UniProt Q9HBH9): 98.2%
EPHA5 (Homo sapiens, UniProt P54756): 99.5%
PRKG1 (Homo sapiens, UniProt Q13976): 98.3%
CSNK1A1 (Homo sapiens, UniProt P48729): 89.2%
MAP4K2 (Homo sapiens, UniProt Q12851): 86.1%
LRRK2 (Homo sapiens, UniProt Q5S007): 96%
KIT (Homo sapiens, UniProt P10721): 87.5%
MAP2K6 (Homo sapiens, UniProt P52564): 91.2%
MAPK13 (Homo sapiens, UniProt O15264): 99.1%

Study 2
Structure (SMILES): N#CC1(c2ccccn2)CCN(Cc2cc(C(=O)N3CCCC3)c(=O)n3ccccc23)CC1
Read-out: cell-free assay
Technique: competition with immobilised ligand
Concentration: 1 µM
Quantity: remaining binding
CDKL3 (Homo sapiens, UniProt Q8IVW4): 78%
RIOK1 (Homo sapiens, UniProt Q9BRS2): 95%
PRKCQ (Homo sapiens, UniProt Q04759): 100%
WNK1 (Homo sapiens, UniProt Q9H4A3): 100%
ULK2 (Homo sapiens, UniProt Q8IYT8): 92%
Tyrosine-protein kinase ABL1, phosphorylated (ABL1, Homo sapiens, UniProt P00519, H396P): 100%
DYRK2 (Homo sapiens, UniProt Q92630): 100%
PIK3CA (Homo sapiens, UniProt P42336, I800L): 72%
FLT3 (Homo sapiens, UniProt P36888, F691L/ITD): 90%
FGR (Homo sapiens, UniProt P09769): 100%
Ribosomal protein S6 kinase alpha-6, N-terminal kinase domain (RPS6KA6, Homo sapiens, UniProt Q9UK32): 89%
PRKCI (Homo sapiens, UniProt P41743): 87%
CAMK1D (Homo sapiens, UniProt Q8IU85): 100%
FGFR3 (Homo sapiens, UniProt P22607): 88%

Study 3
Host: mouse
Sample: microsomes or S9
Concentration: 2 µM
Time: 0.5 h
Quantity: remaining compound
COC(=O)C1CCCN1C(=O)c1ccc(NC(c2ccc(Cl)cc2)c2ccccc2Cl)c(F)c1 (stereo not drawn): 29.9%
COc1c2c(cc3c1OCO3)CCN(C)C(C(=O)c1ccc(Br)cc1)=C2: 0%
Cc1cc(=O)[nH]c(-n2nc(C)cc2NC(=O)C(C)(C)Oc2ccc(Cl)cc2)n1: 27.8%
O=C(Nc1nccs1)C1Cc2ccccc2CN1S(=O)(=O)c1cccs1 (stereo not drawn): 0.67%
O=C(c1nccc2ccccc12)N1CCc2cc(-c3ccno3)ccc21: 1.81%
Cc1ncsc1CC[S+]([O-])c1ccc(S(C)(=O)=O)cc1 (stereo not drawn): 79.2%
Cc1cc(C)n(CCCN(C)CC2(O)CNCCOC2)n1 (stereo not drawn): 64.5%
COC(=O)c1c(OC)cc2c(c1C)Oc1c(Cl)c(O)c(Cl)c(C)c1C(=O)O2: > 99%
CN(CCc1ccccc1)c1ncc(-c2ncc[nH]2)c(-c2ccc(F)cc2)n1: 0.066%
Cc1nnsc1C(=O)Nc1onc2c1CSC2: 1.52%

Study 4
Compound: CC(C)n1cnc(-c2ccc(F)cc2)c1-c1ncc(C(=O)Nc2ccc(N3CCN(C)CC3)cc2)[nH]1
Technique: phase 2a trial
Host: idiopathic pulmonary fibrosis patients
Quantity: adverse event incidence
item: gingivitis; dose not given, grade 3, all arms pooled: 0%
item: hepatic enzyme abnormal; dose not given, grade 2, all arms pooled: 0%
item: ECG ST segment abnormal; 30 mg once daily, grade 5: 0%
item: hydroxybutyrate dehydrogenase increased; 30 mg once daily, grade 3: 0%
item: hepatic enzyme abnormal; 30 mg once daily, grade 4: 0%
item: weight decreased; 60 mg once daily, grade 1: 0%
item: allergic conjunctivitis; 30 mg once daily, grade 3: 0%
item: hepatic enzyme abnormal; 60 mg once daily, grade 2: 0%
item: ECG ST segment abnormal; dose not given, grade 4, all arms pooled: 0%

Excerpt of the above (study 1):
EPHA5 (Homo sapiens, UniProt P54756): 99.5%
PRKG1 (Homo sapiens, UniProt Q13976): 98.3%
CSNK1A1 (Homo sapiens, UniProt P48729): 89.2%
MAP4K2 (Homo sapiens, UniProt Q12851): 86.1%
LRRK2 (Homo sapiens, UniProt Q5S007): 96%
KIT (Homo sapiens, UniProt P10721): 87.5%
MAP2K6 (Homo sapiens, UniProt P52564): 91.2%
